Experimental data collected from several papers.
Numbered parts are unrelated; each lists some results of a single study. Positions count from the first letter of the parent shown.

Set 1 — technique: RNA Bind-n-Seq; molecule type: RNA; matrix: in vitro; concentration: not given; reference: input RNA pool; reading: higher = stronger binding
Target: RING finger protein unkempt homolog, zinc fingers 1-6, GST-SBP tag (UNK, Homo sapiens, UniProt Q9C0B0, residues 30-357)
Sequence of UniProt Q9C0B0 (30-357, looked up): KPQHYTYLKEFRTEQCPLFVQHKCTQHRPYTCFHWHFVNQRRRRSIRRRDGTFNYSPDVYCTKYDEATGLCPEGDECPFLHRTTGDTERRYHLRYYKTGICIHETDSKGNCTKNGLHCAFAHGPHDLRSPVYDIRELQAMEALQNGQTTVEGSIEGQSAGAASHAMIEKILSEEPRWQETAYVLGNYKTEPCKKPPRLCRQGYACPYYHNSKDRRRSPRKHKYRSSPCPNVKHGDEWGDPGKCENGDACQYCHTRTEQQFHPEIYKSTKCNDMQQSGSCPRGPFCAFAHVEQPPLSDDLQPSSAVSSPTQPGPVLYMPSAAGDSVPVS
Notes: RNA with constant flanks, human and mouse sites, ends assumed
Constant ends, left off below: GGGAGUUCUACAGUCCGACGAUC … CAACAGAGGAUUGAGCAUCA
Strand | bound/input enrichment [ratio]
ACCAGACGGGCGGGGAAUGGUGCCCUGGGUGGCCCCAAGGCCCACCGGAAGUUGCAGACACACCCAUCUCUCGCCAGCCAGGGCAGCAAGAAGAGUAAGAGCAGCAGCAAAUCCACCACC | 0.161
UACCAUAAUCAAAAGUUUGAAAUAUCCUGUUUCUUAAAUAAUGAGAACAUUAAUCACAUUUAGCAAGCAUUUGUACAUUCAAACCUGGAUAUUAAAGUGAAAUGAUUACUUUGAAUCACU | 0.217
GUGUAGAGUGUUUAACCGAUGAGUAGAGUACAGUAUUCUCUGGUUAAUAAAAUUAUUCUAUUUAGUGCACUUGUUGCACAGAUGAACAUAGACACAAAGAGGCUAUAUGUCUUCUGCUGA | 0.331
AAACGAGCUGCAGAUGAAGUUUUAGCAGAAGCAAAGAAACCACGAAUUGAGGAUGAAGAGUGUGUGCGCCUUGAUAAAGAGAGAUUGGCUGCCCGUUUGGAGGGUCACAAAGAAGGGAUU | 0.376
CAGGCUGACUAUGUGCCGAGCGAUCAGGACCUGCUUCGCUGCCGUGUCCUGACUUCUGGAAUCUUUGAGACCAAGUUCCAGGUGGACAAAGUCAACUUCCACAUGUUUGACGUGGGUGGC | 0.0914
AUAGUGUUGCGAGAUAGUCUUCAUCAGCCACAGUAUGUAGAAAAGUUAGAGAAGAUUCUUCGUUUUGUCAUCAAAGAAAAAGCUCUGACCUUACAGGAUCUUGAUAAUAUCUGGGCAGCA | 0.132
CGCCUCGCCCGCCGUCCACACCCCAGCGGCCCUGACGCUGUCCCCUCCGCGACCCUCGCCUCUGGAAAAAGUGACAGGCAAGGCCACGCCCCCGCGAGGGCCGGCCUGGAGCCCGCAGCC | 0.187
GAGGAAGAGAAUGUUGUUUUAAAGUUCUCUGAACAGGGGGGAACCCCACAGAAUGUGGCCACUAGCAGCUCCCUCACAGCACAUCUCAGAAGCCUCUCCAAAGGAGAUUCCCCUGUGACU | 0.139
UCCCCCUUUGAUCAAAUGAAGACUGCCUCCAAUAUAGGUGGAUUUAAUGCAGCAAUUAAAAAUAGUCCACCUGCCAUGUCUCAGUAUAUCACUGUAGGGUCCAAUCCAUUUACUGGCUUC | 0.555
GGGCGCUCUGCAUCCAGGUGCCAUUCAUCAGAAAAUAAAAAUGUCUCCUUGAACCUAUCCCUUAGGGCCUGCUUCCUGGAAUCCAAGGGACUAGGAACUCUCUGAGUCACAGGACUCCCA | 0.382
UAAGCAUUCAUUUCACAACUAGAUUGUAUAUGGUAUUUGGCUGUGAUGAGACUCCCAUUAUUCAGUAAACCCUCAUCUCAUUCAGCAGGCACAUGUUAAACAGCAUUGUCGUUGGUGUGA | 3.06

Set 2 — technique: aptamer microarray, sandwich; molecule type: DNA with 2'F-ANA; matrix: in vitro; concentration: 200 nM; together with: Cy3 exosite-II aptamer, 400 nM; reading: higher = stronger binding; strand: GGTTGGTGTGGTTGG
Target: Prothrombin, mature alpha-thrombin (F2, Homo sapiens, UniProt P00734)
Notes: whole 15-mer aptamer, many near background
Modification | mean fluorescence intensity [a.u.]
2'F-ANA at 1 2 4 8 9 13 | 85.3
2'F-ANA at 1 8 11 12 13 15 | 333
2'F-ANA at 1 6 10 11 13 | 65.5
2'F-ANA at 2 4 8 9 10 12 13 14 15 | 58.9
2'F-ANA at 1 2 5 8 10 11 13 14 15 | 50.2
2'F-ANA at 2 4 10 11 12 15 | 120
2'F-ANA at 1 2 3 4 7 8 11 12 13 15 | 267
2'F-ANA at 5 7 11 12 14 | 44.4
2'F-ANA at 4 5 7 8 9 10 12 | 50.9
2'F-ANA at 1 2 5 6 12 13 14 15 | 98
2'F-ANA at 1 6 8 10 13 15 | 53.6
2'F-ANA at 1 4 5 6 7 8 12 13 14 | 45.3
2'F-ANA at 2 3 4 7 8 11 12 13 | 633
2'F-ANA at 5 6 8 10 12 14 | 54.7
2'F-ANA at 5 10 11 12 14 15 | 48.4
2'F-ANA at 5 6 7 8 9 10 14 | 45.8
2'F-ANA at 3 4 5 9 10 11 12 13 | 56.3
2'F-ANA at 2 6 7 10 11 14 15 | 126
2'F-ANA at 1 2 4 8 12 13 15 | 249
2'F-ANA at 3 5 13 14 | 55.4
2'F-ANA at 2 4 5 6 8 9 10 11 13 | 51.5
2'F-ANA at 3 4 6 7 8 9 11 12 13 15 | 484
2'F-ANA at 1 2 4 5 6 8 11 12 13 14 | 47.7
2'F-ANA at 2 3 4 5 6 8 10 11 14 | 48.2
2'F-ANA at 1 2 5 8 12 14 15 | 49.4

Set 3 — target: CCNB2, cyclin fold, Cln2 fusion (human); technique: yeast growth competition, sequencing; matrix: yeast; notes: weak parent motif; reference: not given; reading: higher = stronger binding
Starting sequence: CDKN1B docking peptide (human); PSACRNLFGPVDH; partner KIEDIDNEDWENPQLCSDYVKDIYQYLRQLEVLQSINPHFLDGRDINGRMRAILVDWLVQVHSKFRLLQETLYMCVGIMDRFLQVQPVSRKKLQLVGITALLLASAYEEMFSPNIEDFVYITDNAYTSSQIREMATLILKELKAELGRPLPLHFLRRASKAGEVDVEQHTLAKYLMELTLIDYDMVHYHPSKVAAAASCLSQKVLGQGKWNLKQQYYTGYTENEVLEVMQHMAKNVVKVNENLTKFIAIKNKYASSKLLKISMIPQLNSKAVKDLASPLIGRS
Substitution | normalised enrichment score
PSACRSLFGPVDH [N6S] | -0.158
PSACRNLFGPVMH [D12M] | 0.338
PNACRNLFGPVDH [S2N] | -0.0442
PSACFNLFGPVDH [R5F] | -0.477
PSACRNLVGPVDH [F8V] | -0.365
PSACRNLFPPVDH [G9P] | -0.301
YSACRNLFGPVDH [P1Y] | 0.117
NSACRNLFGPVDH [P1N] | 0.029
DSACRNLFGPVDH [P1D] | -0.627
PVACRNLFGPVDH [S2V] | 0.379
PSACRNDFGPVDH [L7D] | -0.168
PSACRNLFGPVEH [D12E] | -0.0552
PSACRNLFGPKDH [V11K] | 0.233
PSACRNLFGPVDK [H13K] | 0.2
PSACRNQFGPVDH [L7Q] | 0.0998
PSACRNLFAPVDH [G9A] | 0.277
ESACRNLFGPVDH [P1E] | -0.195
PSACRNLTGPVDH [F8T] | 0.0297
KSACRNLFGPVDH [P1K] | 0.479
PSACRNLFGHVDH [P10H] | 0.337
PSACRNLFSPVDH [G9S] | -0.216
PSACRNLFWPVDH [G9W] | 0.256
PSACSNLFGPVDH [R5S] | -0.146
PAACRNLFGPVDH [S2A] | 0.259
PSACRNLWGPVDH [F8W] | -0.148

Set 4 — technique: DHFR PCA, deep sequencing; matrix: yeast; together with: (+)-ABA 2500 µM; reference: wild-type fitted maximum; reading: higher = stronger binding
Target: ABI1, truncated, D143A, DHFR fusion (Arabidopsis thaliana)
Notes: methotrexate growth selection, single substitutions
Starting sequence: PYL1, truncated, DHFR fusion (Arabidopsis thaliana); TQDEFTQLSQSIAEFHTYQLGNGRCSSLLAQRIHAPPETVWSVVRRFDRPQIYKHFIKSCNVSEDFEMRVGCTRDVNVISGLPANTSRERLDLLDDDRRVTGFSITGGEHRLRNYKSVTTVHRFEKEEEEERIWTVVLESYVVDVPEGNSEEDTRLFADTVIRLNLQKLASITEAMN; partner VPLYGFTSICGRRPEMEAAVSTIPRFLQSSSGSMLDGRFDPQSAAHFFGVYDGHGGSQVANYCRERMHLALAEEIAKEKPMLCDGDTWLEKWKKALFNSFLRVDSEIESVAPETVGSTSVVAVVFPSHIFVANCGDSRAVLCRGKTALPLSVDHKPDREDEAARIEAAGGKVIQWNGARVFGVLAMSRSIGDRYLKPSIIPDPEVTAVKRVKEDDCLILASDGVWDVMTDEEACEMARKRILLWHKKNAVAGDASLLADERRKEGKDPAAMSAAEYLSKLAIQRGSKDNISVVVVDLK
Substitution | relative binding score [%]
R49G | 85.4
S104A | 90.2
R132N | 108
P36L | 96.9
D92W | 82.6
W134V | 104
K54F | 5.27
R88E | 93.6
Y18K | 95.5
F15D | 69.4
F157G | -2.52
I105P | -20.3
E89I | 8.41
G81V | 75.3
I133Y | 98.5
R45I | 42
H34T | 93.8
K126V | 105
G81E | 62.3
E67N | 92.3
D92T | 97.8
S27D | 97

Mixed results
Molecule | target | test | system | setting | how to read | endpoint | value
PhoQ, residues 284 288 289 292 302 303 SSYNSA | PhoP, residues 12 14 15 18 19 TPLRH (Escherichia coli, UniProt P23836) | Sort-seq, item: YFP reporter | E. coli | PhoQ-PhoP variant library, together with: 10 µM Mg2+ | reference: high Mg2+ state, higher = stronger signaling | fold induction | 0.697

Some of these lines once more (set 2):
Modification | mean fluorescence intensity [a.u.]
2'F-ANA at 2 3 4 7 8 11 12 13 | 633
2'F-ANA at 3 4 5 9 10 11 12 13 | 56.3
2'F-ANA at 1 8 11 12 13 15 | 333
2'F-ANA at 1 2 5 6 12 13 14 15 | 98
2'F-ANA at 1 6 8 10 13 15 | 53.6
2'F-ANA at 1 2 3 4 7 8 11 12 13 15 | 267
